Results pooled from the literature.
A part holds a random share of what one study measured. Changes are numbered by the printed parent chain.

Sample 1
Target: Histone acetyltransferase KAT6A, winged helix 2, GST fusion (KAT6A, Homo sapiens, UniProt Q92794, residues 85-181)
Method: protein binding microarray
Molecule type: double-stranded DNA, one strand shown
Matrix: in vitro
Concentration: not given
Setting: 8-mer, flanks averaged, mean of 2 arrays, mostly near background
Baseline: not given
Reading: higher = stronger binding
Construct (chain): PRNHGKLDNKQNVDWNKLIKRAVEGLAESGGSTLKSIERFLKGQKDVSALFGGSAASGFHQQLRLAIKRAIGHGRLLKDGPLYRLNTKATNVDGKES
Sequence | E-score
ATTTAACC | -0.0035
GCCCACAC | 0.184
AATATAAA | 0.147
GCCATTTA | -0.129
CAGAGTGC | 0.0201
ATGACGCG | 0.0553
ACCAGTTA | -0.184
CGCGTAAG | -0.109
CGTCGACC | 0.125
TGAGCCAA | -0.144
ATCAATCG | 0.00344
CTCAAAAA | -0.0487
CGTGTTGC | 0.135
CACGGCCA | -0.034
ACTGCAAA | -0.0706
AAATACCG | 0.0492
AACGCTCG | -0.0535
ACAGATCA | -0.174
TAGGGTGA | -0.0575
GTCATACA | -0.0179
TCGCAGCA | 0.116
TATCATGA | -0.00301
ACACAGCT | -0.196

Sample 2
Target: RNA binding protein fox-1 homolog 2, RRM domain, GST-SBP tag (RBFOX2, Homo sapiens, UniProt O43251-10, residues 100-194)
Method: RNA Bind-n-Seq
Molecule type: RNA
Matrix: in vitro
Concentration: 365 nM
Setting: natural RNA segment, single round, ends assumed
Baseline: no-protein control
Reading: higher = stronger binding
All sequences stand within: GGGAGUUCUACAGUCCGACGAUC … UGGAAUUCUCGGGUGCCAA
Construct (chain): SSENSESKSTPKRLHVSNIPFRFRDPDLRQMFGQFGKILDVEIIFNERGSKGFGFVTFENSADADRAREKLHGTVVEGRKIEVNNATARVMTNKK
Sequence | RBNS enrichment (R)
GGCCCAGCUGCUGUUUAUUUAUGCUUUUUGGUCUGUUUGUUUGAUCUUUUGCUUUUUUAAAAUUGUUUUUUGCAGUUAAGAGGCAGCUCAUUUGUCCAAAUUUCUGGGCU | 1.62
CUGAAGAUUGUCCUGGCCGCGACCUGGACCUCCAUGAGUGGAGGGAAGAGUGAUCUAUGUCUCUUCCCCCAGCAGCUCGGACCACUCCCAGCCCCCCAUCCCCCCGUUCC | 0.411
CAGUCUUAUAAACAAAGUAAAUAGGACAGAGACUAAGUUUUAGGGAGACAUCUUGGCCUCCUAGGCUAAGUUUACUAAACCACACUGAAGCUAUAGUACCUUCCAGAUGG | 0.252
UAGUUUUAGAAUAAUAUUUCUUCGGCAAACCCUGCUAACUGCGGUUCACCCUUGAAAACGUUAAUCUGAGGACUUUUUCCACCAACUCAUUAAUGAUGGUGGAAGCAAGU | 0.273
AUGUCUAAAGUGAUUAUCUUUUUUCCCCCCAAGUUAGUCUUAAAUCUUUUGGGUUUGAAUGAAGGUUUUACAUAAGAAAUUAUUAAAAACAAGGGGGGUGGGUAAUAAAU | 1.2
GGAACUAGCCUUGUGUCUAUGAGGGCACCCUUCAGCUCACUCCACCCCCCAGGUAGACAGGUGCAUUUUGACCCUUCUGGACAGAAGAAACAAUGUGUUUUCCACCCCAC | 0.661
AAUUUCAUUUGCAUUUUCCACAUGAACUAGUUCCAAAUCUGAAGCCCAGGUUGGGCAUGACAUUACAACCCCAGCCCUACCUCAUCUGUGCAGAAAGACGCUGAAAGUGC | 4.56
CGUGCACUUCCACUGCUCGGGCGCGCCUGUGGCCCCGCUGCAGUGAAGAGCUGCGCCCUGGUUUCGCCGGACAGAGUUGGUGUUUGGAGCCCGACUGCCCUCGGGCACAC | 0.722
AUUUCCAGAUCUUUGGCAUUUUCCCCGCGCUGACUCUUUGAUGAUCCUUCACUGUGGCCUUUUCAAGCUCAGCUGUUCCUGUUGUAUUUGAGACGAGGGUGAGGGAAUGU | 0.219
GAUGGAGACUGGUGGGGACGCCCCCGCCUCCCUGUCCCCCGUUUCACACACUGGACACCAUCACCUCUUUGGAACUGCCAGACCCUGGGGGUCCCCAGUGAGCAAAGGUC | 0.31
GUUUUAAAUGCAGCUUUCUGUAGAGAUUCUACCUGCAGUCUGUUCUCUCUUGGGGUUCCACACCCAUUUCUUGCCAGCAGCUCCCAGUGAUGCUGUGUUUUGUAUGUUAG | 0.592
ACUGUAGAUUUUUACUGAUUGUCCUGGAUGAAUAGACUGUGCUUUUUCUUUUUCUCUCCCUUCCUUCUUGGUUUCCCAUAGUAUAAUAAGCAUGCAUACUUUAACUUCUA | 9.92

Sample 3
Target: ABI1, truncated, D143A, DHFR fusion (Arabidopsis thaliana)
Method: DHFR PCA, deep sequencing
Matrix: yeast
Setting: methotrexate growth selection, single substitutions
Added: (+)-ABA 200 µM
Baseline: wild-type fitted maximum
Reading: higher = stronger binding
Starting sequence: PYL1, truncated, DHFR fusion (Arabidopsis thaliana); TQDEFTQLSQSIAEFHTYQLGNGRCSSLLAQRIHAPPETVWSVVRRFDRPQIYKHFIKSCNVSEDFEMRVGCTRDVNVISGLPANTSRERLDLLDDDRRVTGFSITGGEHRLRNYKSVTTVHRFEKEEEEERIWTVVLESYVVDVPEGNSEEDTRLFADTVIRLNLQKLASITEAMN; partner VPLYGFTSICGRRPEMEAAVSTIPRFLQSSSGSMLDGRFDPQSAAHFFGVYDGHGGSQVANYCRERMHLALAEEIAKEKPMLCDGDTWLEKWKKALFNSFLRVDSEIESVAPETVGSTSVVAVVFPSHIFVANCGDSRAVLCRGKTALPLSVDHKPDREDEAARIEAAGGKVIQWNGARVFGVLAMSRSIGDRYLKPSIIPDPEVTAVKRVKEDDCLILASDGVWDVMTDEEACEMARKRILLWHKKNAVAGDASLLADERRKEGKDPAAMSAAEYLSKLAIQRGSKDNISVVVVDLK
Variant | relative binding score [%]
A170H | 34.6
F124R | 90.1
G23E | 89.9
Q167N | 95
I33Q | 1.99
D159C | 58.7
C72V | 102
P50K | 7.5
P36Y | 81.4
T1L | 97.9
L166I | 38.3
R111Y | 51.6
I52K | 99.8
T73R | 94.8
D75Y | 102
T106M | 109

Sample 4
Target: Interferon regulatory factor 3, full length, phosphomimetic (IRF3, Homo sapiens, UniProt Q14653, residues 1-427, S386D/S396D/S398D/S402D/T404D/S405D)
Method: protein-binding microarray
Molecule type: double-stranded DNA, one strand shown
Matrix: in vitro
Concentration: 2540 nM top
Setting: 60-bp whole probe
Added: salmon DNA 0.4 mg/ml
Baseline: random background probes
Reading: higher = stronger binding
All sequences stand within: GCCTAGCAC … GTCTTGATTCGCTTGACGCTGCTG
Construct (chain): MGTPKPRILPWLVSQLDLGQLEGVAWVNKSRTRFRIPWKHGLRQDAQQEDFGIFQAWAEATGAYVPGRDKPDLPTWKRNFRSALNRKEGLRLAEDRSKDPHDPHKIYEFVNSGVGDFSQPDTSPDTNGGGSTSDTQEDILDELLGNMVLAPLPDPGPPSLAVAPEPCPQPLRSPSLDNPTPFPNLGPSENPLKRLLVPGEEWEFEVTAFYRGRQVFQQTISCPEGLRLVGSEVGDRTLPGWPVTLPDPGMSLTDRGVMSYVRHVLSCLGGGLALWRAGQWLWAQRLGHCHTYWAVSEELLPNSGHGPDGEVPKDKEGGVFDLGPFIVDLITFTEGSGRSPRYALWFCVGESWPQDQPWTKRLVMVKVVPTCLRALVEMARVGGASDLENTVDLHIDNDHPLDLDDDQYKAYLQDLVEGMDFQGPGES
Sequence | fitted relative affinity [z-score]
TTAGGTATCCTTCTTCTTTAGTGCTAG | 7.32
GACGGTTTCTACACTGGGGACGTGCTA | 1.76
TCACCTCTCACCTCGGCACTGTGCTAG | 0.557
TTAGGTATCGGGTATTGGTTAGTGCTA | 0.967
CTCGGTTTCCAAATTGTCTCGTGCTAG | 6.69
TTACGACTGGGTCTCGGTTAGTGCTAG | -0.44
TTAGGTATCGGTTTCGATTAGTGCTAG | 7.86
GATGATATCGGGACTGGAGACGTGCTA | -0.233
TTAGGACTGGGGTTTCGGTTGGTGCTA | 1.48
TTAGGTCTCGGACTTGGTTAGTGCTAG | 0.0265
ATAGGACTGGGGTATCGGTTAGTGCTA | -0.0259
GACGGTAGCGGACTGGGGACGTGCTAG | -0.661
GACGATATCGTGTTTCGAGACGTGCTA | 0.934
TTAGGTTTCGGACAGGGTTAGTGCTAG | 2.53
GACGATTTCAGTTTCGATACGTGCTAG | 6.1
CAGCACAGCTGACTACAAGCGTGCTAG | -0.887
GACGGTTTCCTACTGCAGACGTGCTAG | 5.5
GACGATCTCAGACTGTAGACGTGCTAG | 0.29
GACGGTATCGGGATCGGGACGTGCTAG | 1.99
GACGATATCGGGTTTCGTGACGTGCTA | 0.905
CTGTACTTGAATTCTGCAAAGTGCTAG | 0.164

Sample 5
Target: Sal-like protein 4, full length isoform B (SALL4, Homo sapiens, UniProt Q9UJQ4-2, residues 1-616)
Method: universal PBM
Molecule type: double-stranded DNA, one strand shown
Matrix: in vitro
Concentration: not given
Setting: 8-mer, flanks averaged, mean of replicates
Reading: higher = stronger binding
Residues (chain): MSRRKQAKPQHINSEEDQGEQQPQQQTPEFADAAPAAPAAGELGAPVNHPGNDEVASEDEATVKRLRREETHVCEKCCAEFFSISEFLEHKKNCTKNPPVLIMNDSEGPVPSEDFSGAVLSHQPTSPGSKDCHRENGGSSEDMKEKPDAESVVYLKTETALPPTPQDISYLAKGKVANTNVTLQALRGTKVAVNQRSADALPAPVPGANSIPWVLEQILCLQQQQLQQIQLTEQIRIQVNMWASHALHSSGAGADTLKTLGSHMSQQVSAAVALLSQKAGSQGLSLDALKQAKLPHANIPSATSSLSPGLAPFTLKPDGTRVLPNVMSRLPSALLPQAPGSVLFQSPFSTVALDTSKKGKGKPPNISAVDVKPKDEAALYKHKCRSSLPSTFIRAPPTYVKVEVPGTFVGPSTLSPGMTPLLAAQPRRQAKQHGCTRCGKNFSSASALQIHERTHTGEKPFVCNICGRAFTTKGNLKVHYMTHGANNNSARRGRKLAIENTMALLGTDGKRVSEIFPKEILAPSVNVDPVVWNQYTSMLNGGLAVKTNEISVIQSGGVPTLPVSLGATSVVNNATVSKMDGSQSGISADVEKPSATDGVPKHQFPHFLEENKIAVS
Sequence | E-score
ATCAGGAT | 0.0917
AATCAATT | 0.253
CGCTCAAC | -0.111
CGGCGTCC | -0.349
AAGCGGAC | -0.238
GACTATCA | 0.145
GGAATTTA | 0.159
GCTTGAGA | -0.141
CCTGACAG | -0.183
AAGAGCAA | -0.00046
CAACTCGG | -0.279
AGACAGCC | -0.195
ATCTAGGA | 0.11
CCGCTCGA | -0.3
AACCCACC | -0.225
CCGTGAAA | 0.00278
ATGCCCTA | -0.0574

Some of these lines once more (sample 1):
Sequence | E-score
CGTGTTGC | 0.135
CACGGCCA | -0.034
ACTGCAAA | -0.0706
AAATACCG | 0.0492
AACGCTCG | -0.0535
ACAGATCA | -0.174
TAGGGTGA | -0.0575
